Experimental data from different studies.
A part holds a random share of what one study measured.

Sample 1
Target: PABPC1L2, full length, GST fusion (mouse, UniProt A0ABA7IW68)
Technique: RNAcompete
Form: RNA
Medium: in vitro
Tested at: 20 nM
Notes: 7-mer, probes averaged, single round
Baseline: mean of 7-mers
Reading: higher = stronger binding
Construct (chain): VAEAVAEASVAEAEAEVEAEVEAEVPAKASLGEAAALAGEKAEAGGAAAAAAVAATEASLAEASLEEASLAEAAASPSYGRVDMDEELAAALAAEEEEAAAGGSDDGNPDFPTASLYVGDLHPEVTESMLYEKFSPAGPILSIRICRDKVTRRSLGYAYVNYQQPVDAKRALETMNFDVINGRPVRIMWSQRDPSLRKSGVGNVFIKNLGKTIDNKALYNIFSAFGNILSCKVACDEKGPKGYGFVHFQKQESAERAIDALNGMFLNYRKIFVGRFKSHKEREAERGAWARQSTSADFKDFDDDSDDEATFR
| Oligonucleotide | 7-mer Z-score |
| --- | --- |
| GUCAUGG | -0.0554 |
| GUCCGUU | -0.324 |
| CAAGACA | 0.129 |
| CGAUUUG | -0.262 |
| CUAGGGG | 0.207 |
| GGAAGGG | 0.274 |
| CUCGAUC | -0.329 |
| CACCCUC | -0.324 |

Sample 2
Target: Protein max, full length (MAX, Homo sapiens, UniProt P61244-2, residues 1-151)
Technique: protein-binding microarray
Form: double-stranded DNA, one strand shown
Medium: in vitro
Tested at: not given
Notes: k-mer, scored over probes, only values ≥0.25
Reading: higher = stronger binding
| Oligonucleotide | E-score |
| --- | --- |
| CGCATGGC | 0.444 |
| ACGAGGAT | 0.26 |
| CCTACACG | 0.321 |
| GTGTGGGA | 0.311 |
| ACGTGGAA | 0.43 |
| AAGCATGC | 0.456 |
| CATGCGCG | 0.418 |
| GCATGTAC | 0.351 |
| CAGCATGC | 0.445 |
| ACGTTGTC | 0.356 |
| GCACCTGC | 0.349 |

Sample 3
Target: Interferon regulatory factor 7, full length, phosphomimetic (IRF7, Homo sapiens, UniProt Q92985, residues 1-503, S471D/S472D/S475D/S476D/S477D/S483D/S484D/S487D)
Technique: protein-binding microarray
Form: double-stranded DNA, one strand shown
Medium: in vitro
Tested at: 2200 nM top
Notes: 60-bp whole probe
Together with: salmon DNA 0.4 mg/ml
Baseline: random background probes
Reading: higher = stronger binding
Shared flanks, not repeated: GCCTAGCAC … GTGCTAGGTCTTGATTCGCTTGACGCTGCTG
Construct (chain): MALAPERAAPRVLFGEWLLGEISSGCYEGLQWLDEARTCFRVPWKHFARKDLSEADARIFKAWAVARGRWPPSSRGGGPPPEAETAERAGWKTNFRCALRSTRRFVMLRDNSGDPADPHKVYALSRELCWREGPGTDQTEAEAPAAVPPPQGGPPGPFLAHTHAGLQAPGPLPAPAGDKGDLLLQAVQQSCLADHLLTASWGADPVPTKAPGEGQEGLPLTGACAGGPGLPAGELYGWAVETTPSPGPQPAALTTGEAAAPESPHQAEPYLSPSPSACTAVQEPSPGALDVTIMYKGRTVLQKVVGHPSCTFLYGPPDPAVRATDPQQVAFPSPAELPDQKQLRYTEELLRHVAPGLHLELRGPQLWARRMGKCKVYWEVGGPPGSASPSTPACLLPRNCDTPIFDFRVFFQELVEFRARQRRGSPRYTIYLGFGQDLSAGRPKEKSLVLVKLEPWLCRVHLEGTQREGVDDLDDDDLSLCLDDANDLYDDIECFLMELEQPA
| Oligonucleotide | fitted relative affinity |
| --- | --- |
| CCCTGTGTTACTTTCTACTT | 4.54 z-score |
| GACAGTCTCGGTTTCGGGAC | 4.67 z-score |
| TTAGGTTTCCTTCTCCCTTA | 2.79 z-score |
| GACGGTTTCGGTCTCGGGAG | 6.56 z-score |
| GGACGAGCGACGGTGACACT | -0.634 z-score |
| GATGATTTCAGTTTCGAGAC | 6.13 z-score |
| GACGGTTTCGGTTACGGGAC | 7.65 z-score |

Single results of other studies
| Substance | target | test | test system | conditions | scale | measurement | result |
| --- | --- | --- | --- | --- | --- | --- | --- |
| PhoQ, residues 284 288 289 292 302 303 SLGVVW | PhoP, residues 12 14 15 18 19 VQGLL (Escherichia coli, UniProt P23836) | Sort-seq, refers to: YFP reporter | E. coli | PhoQ-PhoP variant library, together with: 10 µM Mg2+ | baseline: high Mg2+ state, higher = stronger signaling | fold induction | 12.2 |

For quick reference, copied from above (sample 2):
| Oligonucleotide | E-score |
| --- | --- |
| ACGTTGTC | 0.356 |
| CGCATGGC | 0.444 |
| CCTACACG | 0.321 |
| AAGCATGC | 0.456 |
| GTGTGGGA | 0.311 |
